Assay results of several laboratories.
Each numbered part is a random draw from the data of one study; scales do not carry over between parts. Substitutions count along the parent as printed.
UniProt Q15208, sequence (whole entry, looked up): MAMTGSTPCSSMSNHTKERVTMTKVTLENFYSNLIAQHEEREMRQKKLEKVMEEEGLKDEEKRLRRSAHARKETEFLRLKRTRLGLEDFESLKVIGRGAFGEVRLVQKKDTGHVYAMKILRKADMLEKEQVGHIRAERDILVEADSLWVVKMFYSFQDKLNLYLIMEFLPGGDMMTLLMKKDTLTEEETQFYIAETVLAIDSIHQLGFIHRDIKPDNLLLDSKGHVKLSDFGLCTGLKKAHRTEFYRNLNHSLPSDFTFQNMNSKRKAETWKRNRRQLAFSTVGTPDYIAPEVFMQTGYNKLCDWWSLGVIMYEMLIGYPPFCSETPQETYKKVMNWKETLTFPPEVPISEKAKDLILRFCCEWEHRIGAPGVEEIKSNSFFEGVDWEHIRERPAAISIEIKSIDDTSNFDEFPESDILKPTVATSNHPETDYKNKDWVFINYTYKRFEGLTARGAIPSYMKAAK
UniProt O14965, sequence (whole entry, looked up): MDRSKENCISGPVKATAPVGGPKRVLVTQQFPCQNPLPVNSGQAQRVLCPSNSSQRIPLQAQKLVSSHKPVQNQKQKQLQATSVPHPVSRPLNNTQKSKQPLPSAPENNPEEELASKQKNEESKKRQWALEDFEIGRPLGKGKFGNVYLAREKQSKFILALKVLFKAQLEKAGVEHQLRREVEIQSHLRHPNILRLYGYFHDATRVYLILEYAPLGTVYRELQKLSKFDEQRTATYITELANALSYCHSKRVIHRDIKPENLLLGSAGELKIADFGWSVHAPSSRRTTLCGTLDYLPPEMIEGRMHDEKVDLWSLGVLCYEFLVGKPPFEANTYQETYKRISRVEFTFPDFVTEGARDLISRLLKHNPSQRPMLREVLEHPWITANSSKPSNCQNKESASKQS

Block 1
Target: CRIPT, C-terminal peptide
Method: DHFR complementation, deep sequencing
Sample: yeast
Notes: single substitutions, model-inferred values
Reference: wild type
Direction: higher = weaker binding
Measurement: binding free energy change
Starting sequence: ERBIN, PDZ domain 1 (human); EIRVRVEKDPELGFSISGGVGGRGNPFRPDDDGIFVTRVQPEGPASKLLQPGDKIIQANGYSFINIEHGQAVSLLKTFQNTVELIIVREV; partner TKNYKQTSV
R23K: 0.337 kcal/mol
G18A: 1.33 kcal/mol
R28I: 0.0239 kcal/mol
I55H: 1.14 kcal/mol
Q40K: -0.0856 kcal/mol
R38P: 1.4 kcal/mol
E67I: 0.351 kcal/mol
S73C: 0.012 kcal/mol

Block 2
Target: Ras GTPase-activating protein-binding protein 1, C-terminal RGG region (G3BP1, Homo sapiens, UniProt Q13283)
UniProt Q13283, sequence (whole entry, looked up): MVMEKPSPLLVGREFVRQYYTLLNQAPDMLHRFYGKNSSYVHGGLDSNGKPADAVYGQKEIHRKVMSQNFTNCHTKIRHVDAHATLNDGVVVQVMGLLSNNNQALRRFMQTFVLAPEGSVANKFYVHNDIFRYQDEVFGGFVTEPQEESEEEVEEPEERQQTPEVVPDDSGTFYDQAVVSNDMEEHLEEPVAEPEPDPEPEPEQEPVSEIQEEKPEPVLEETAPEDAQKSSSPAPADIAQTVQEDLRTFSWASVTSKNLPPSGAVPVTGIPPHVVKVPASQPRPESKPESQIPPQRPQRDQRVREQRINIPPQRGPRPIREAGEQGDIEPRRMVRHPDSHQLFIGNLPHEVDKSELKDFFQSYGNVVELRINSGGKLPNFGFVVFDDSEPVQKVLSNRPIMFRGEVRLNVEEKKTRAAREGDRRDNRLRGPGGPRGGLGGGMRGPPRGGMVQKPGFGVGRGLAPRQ
Method: RNA Bind-n-Seq
Form: RNA
Sample: in vitro
Concentration: 1 µM
Notes: whole 134-nt RNA, ends assumed
Added: 150 mM KCl
Reference: input library
Direction: higher = stronger binding
Measurement: log2 enrichment
Shared flanks, not repeated: GGGAGUUCUACAGUCCGACGAUC … UGGAAUUCUCGGGUGUCAAGG
UCAAGUCCUGUGCUACACAUCGUAUGUACCGAAUCGGUUUUUGGAAAAAGGAGGAAAGUAUUAUGUUACGCCGUUCGGAUCUGCACUUCC: -1.15
CCUGUGCUACACAUCGUAUGUACCGAAUCGGGGAAAAAAGGAAAAAAGGGAAAAAAGGGGAAAGUAUUAUGUUACGCCGUUCGGAUCUGC: -1.67
UCCUGUGCUACACAUCGUAUGUACCGAAUCGGGGUUUUUGGGGAAAGGGGUUUUUGGGGAAAGUAUUAUGUUACGCCGUUCGGAUCUGCA: 2.62
AAGUCCUGUGCUACACAUCGUAUGUACCGAAUCGGAAAAAAAGGAGGUUUUUUUGGAAAGUAUUAUGUUACGCCGUUCGGAUCUGCACUU: -2.03
GCAGGAAGUAAAAACAAAUGGAAAUGCUUCGGAUAGUGGCAGGGGUGGGGGUUGCUAAGGAAAGGGUGGGAUGGGAGUGGGUAAAGAGAU: 1.23
CACAGACAACACGUACCCACACAGACACAGAGGGAAGGGGUUGGGAUGGGGACAGGGUGCACAGCAGGGCGGGGUAGGACCCCAGCCCCU: -0.342
AGUCCUGUGCUACACAUCGUAUGUACCGAAUCGGGCCCCGGGCCCCGGGCCCCGGGGAAAGUAUUAUGUUACGCCGUUCGGAUCUGCACU: -2.45
AGUCCUGUGCUACACAUCGUAUGUACCGAAUCGGGGUUUUUGGGGAAAGGGGAGGGGAAAGUAUUAUGUUACGCCGUUCGGAUCUGCACU: 3.12

Single results of other studies
CC(=O)C1=C(C)N(c2cccc(C(F)(F)F)c2)C(=O)N[C@@H]1c1ccc(C#N)nc1
remaining binding (Serine/threonine-protein kinase 38 (STK38, Homo sapiens, UniProt Q15208); cell-free assay, competition with immobilised ligand; 1 µM): 94.1%

CCN(CC)C(=O)c1ccc(Nc2nc(OCC3CCCCC3)c3[nH]cnc3n2)cc1
remaining activity (Aurora kinase A (AURKA, Homo sapiens, UniProt O14965); enzyme activity, inhibitor; 0.5 µM; reference: control): 3.03%

Some of these lines once more (block 2):
UCCUGUGCUACACAUCGUAUGUACCGAAUCGGGGUUUUUGGGGAAAGGGGUUUUUGGGGAAAGUAUUAUGUUACGCCGUUCGGAUCUGCA: 2.62
CCUGUGCUACACAUCGUAUGUACCGAAUCGGGGAAAAAAGGAAAAAAGGGAAAAAAGGGGAAAGUAUUAUGUUACGCCGUUCGGAUCUGC: -1.67
